Published values collected from several papers.
Compare with care: the assays were run in different laboratories. Values joined by “and” are separate records of one study, mostly repeats; a detail may differ. Numbers after ± are the reported error.

Structure (SMILES) = CC(C)=CCC/C(C)=C/CCn1cc(CC(P(=O)(O)O)P(=O)(O)O)nn1; test system = mouse CD-1, bile; setting = intravenous, 0.3 mg/kg, 2 h; quantity = concentration; result = 554 ± 267 ng/mL
Structure (SMILES) = CC[C@H](C)[C@H](NC(=O)[C@H](Cc1ccc(O)cc1)NC(=O)[C@@H](NC(=O)[C@H](CCCNC(=N)N)NC(=O)[C@@H](N)CC(=O)O)C(C)C)C(=O)N[C@@H](Cc1c[nH]cn1)C(=O)N1CCC[C@H]1C(=O)O; test system = Beagle dogs, both sexes, plasma; setting = subcutaneous, 10 mg/kg/day, day 0, median; quantity = half-life; result = 28.5 min
Structure (SMILES) = CN(C)CCc1c[nH]c2cccc(/N=N/c3ccccc3)c12; test = light irradiation; test system = solution; setting = together with: light 385 nm; quantity = cis isomer at photostationary state; result = 50%
Structure (SMILES) = CSCC[C@H](N)C(=O)N[C@@H](C)C(=O)N[C@@H](CCCNC(=N)N)C(=O)N[C@@H](CCCNC(=N)N)C(=O)N[C@@H](CC(=O)O)C(=O)N[C@@H](CCCCN)C(=O)N[C@H](C(=O)N[C@@H](CC(=O)O)C(=O)N[C@@H](Cc1ccccc1)C(=O)N[C@@H](C)C(=O)N[C@@H](CCCNC(=N)N)C(=O)N[C@@H](CCCNC(=N)N)C(=O)N[C@@H](CCCNC(=N)N)C(=O)N[C@@H](CCCNC(=N)N)C(=O)NCCCCCC(=O)NCCCCC(NC(=O)CCCCCNC(=O)[C@H](CCCNC(=N)N)NC(=O)[C@H](CCCNC(=N)N)NC(=O)[C@H](CCCNC(=N)N)NC(=O)[C@H](CCCNC(=N)N)NC(=O)[C@H](C)NC(=O)[C@H](Cc1ccccc1)NC(=O)[C@H](CC(=O)O)NC(=O)[C@@H](NC(=O)[C@H](CCCCN)NC(=O)[C@H](CC(=O)O)NC(=O)[C@H](CCCNC(=N)N)NC(=O)[C@H](CCCNC(=N)N)NC(=O)[C@H](C)NC(=O)[C@@H](N)CCSC)[C@@H](C)O)C(=O)NCCCCC(NC(=O)C(CCCCNC(=O)CCCCCNC(=O)[C@H](CCCNC(=N)N)NC(=O)[C@H](CCCNC(=N)N)NC(=O)[C@H](CCCNC(=N)N)NC(=O)[C@H](CCCNC(=N)N)NC(=O)[C@H](C)NC(=O)[C@H](Cc1ccccc1)NC(=O)[C@H](CC(=O)O)NC(=O)[C@@H](NC(=O)[C@H](CCCCN)NC(=O)[C@H](CC(=O)O)NC(=O)[C@H](CCCNC(=N)N)NC(=O)[C@H](CCCNC(=N)N)NC(=O)[C@H](C)NC(=O)[C@@H](N)CCSC)[C@@H](C)O)NC(=O)CCCCCNC(=O)[C@H](CCCNC(=N)N)NC(=O)[C@H](CCCNC(=N)N)NC(=O)[C@H](CCCNC(=N)N)NC(=O)[C@H](CCCNC(=N)N)NC(=O)[C@H](C)NC(=O)[C@H](Cc1ccccc1)NC(=O)[C@H](CC(=O)O)NC(=O)[C@@H](NC(=O)[C@H](CCCCN)NC(=O)[C@H](CC(=O)O)NC(=O)[C@H](CCCNC(=N)N)NC(=O)[C@H](CCCNC(=N)N)NC(=O)[C@H](C)NC(=O)[C@@H](N)CCSC)[C@@H](C)O)C(N)=O)[C@@H](C)O (stereo partly drawn); test system = C57BL/6 mouse female, stomach; setting = dose not given, 3 h; scale = baseline: total; quantity = mean tissue distribution; result = 44.3%
Structure (SMILES) = CC(C)C[C@H](NC(=O)[C@H](Cc1ccc(O)cc1)NC(=O)[C@H](Cc1c[nH]cn1)NC(=O)[C@H](CC(=O)O)NC(=O)[C@H](CC(C)C)NC(=O)[C@H](C)NC(=O)[C@H](CC(C)C)NC(=O)CNC(=O)CNC(=O)[C@@H](NC(=O)[C@@H](NC(=O)[C@H](CCCCN)NC(=O)CNC(=O)[C@@H](NC(=O)[C@H](CCCCN)NC(=O)[C@H](CCCCN)NC(=O)[C@H](C)NC(=O)[C@H](CCCCN)NC(=O)[C@H](CCCNC(=N)N)NC(=O)[C@H](Cc1ccccc1)NC(=O)[C@@H](NC(=O)[C@H](CO)NC(=O)[C@H](CCCCN)NC(=O)[C@H](Cc1c[nH]c2ccccc12)NC(=O)CN)C(C)C)C(C)C)[C@@H](C)O)C(C)C)C(N)=O; test system = zebrafish embryos 28 hpf, E3 medium; setting = 24 h; quantity = chronic toxic concentration; result = 5 µM
Structure (SMILES) = CCCCCCCCCCCC(=O)C(C)C(=O)N1CCC[C@H]1C(=O)NC(C)(C)C(=O)NC(C)(C)C(=O)NC(C)(C)C(=O)N[C@](C)(CC)C(=O)NCCC(=O)N[C@@H](C)C(=O)N[C@](C)(CC)C(=O)N[C@@H](C)C(=O)N[C@@H](CC(C)C)C(=O)N[C@](C)(CC)C(=O)NCCC(=O)N[C@@H](C)C(=O)N[C@](C)(CC)C(=O)NCCC(=O)N[C@@H](C)C(=O)NC(C)(C)C(=O)NC(C)(C)C(=O)NC(C)(C)C(=O)N[C@@H](C)C(=O)N[C@@H](CC(=O)O)C(=O)O (stereo partly drawn); test = LC-MS; test system = buffer with human neutrophil elastase; setting = 40 µM, 540 min, pH 7.5, 37 °C; scale = baseline: 0 h; quantity = remaining intact peptide; result = 54.9% and 54.6% and 57.3%
Structure (SMILES) = NC1CCN(C(=O)Oc2ccc(C3CCCC4(C3)OOC3(O4)C4CC5CC(C4)CC3C5)cc2)CC1 (racemic); test system = male Sprague-Dawley rat, plasma; setting = intravenous, 10 mg/kg; quantity = AUC(0-t); result = 2500 ng·h/mL
Structure (SMILES) = Cc1n[nH]c(C)c1CCCOc1cc(OCCCCCCNCCOCCOCCn2cc(CNc3ccc(C(=O)O)cc3)nn2)cc(C(=O)O)c1; test system = water; setting = 72 (unit not given), pH 3.5, 37 °C; quantity = solubility; result = ≥ 200 µM
Structure (SMILES) = O=C1NC2(CC2)COc2ncc(F)cc2[C@H]2COCCN2c2ccn3ncc1c3n2; test system = Sprague-Dawley rat, male, serum; setting = oral, 2.5 mg/kg/day, 4 weeks daily, end of treatment; quantity = alanine aminotransferase activity; result = 29.6 ± 2.5 U/L
Structure (SMILES) = N=C(N)NCCC[C@H](NC(=O)[C@H](CCCNC(=N)N)NC(=O)[C@H](CCCNC(=N)N)NC(=O)[C@H](CCC(N)=O)NC(=O)[C@H](CCCNC(=N)N)NC(=O)[C@H](CCCNC(=N)N)NC(=O)[C@H](CCCCN)NC(=O)[C@H](CCCCN)NC(=O)[C@H](CCCNC(=N)N)NC(=O)CNC(=O)[C@H](Cc1ccc(O)cc1)NC(=O)[C@H](Cc1ccccc1)NC(=O)[C@H](Cc1ccccc1)NC(=O)[C@H](Cc1ccccc1)NC(=O)OCC1c2ccccc2-c2ccccc21)C(=O)O; test system = C57BL/6 mice; setting = intraperitoneal, 5 mg/kg, 2 h; scale = direction not given; quantity = health score; result = 5
Structure (SMILES) = CCCCCCCCCCCCCCCC(=O)N[C@@H](CCC(=O)NCCCC[C@H](NC(=O)[C@H](CC(=O)O)NC(=O)[C@H](CO)NC(=O)[C@@H](NC(=O)[C@H](Cc1ccccc1)NC(=O)[C@@H](NC(=O)CNC(=O)[C@H](CCC(N)=O)NC(=O)[C@H](C)NC(=O)[C@@H](Cc1ccc(O)cc1)NC(C)=O)[C@@H](C)O)[C@@H](C)O)C(=O)N[C@@H](CO)C(=O)N[C@@H](CCCCN)C(=O)N[C@@H](Cc1ccc(O)cc1)C(=O)N[C@@H](CC(C)C)C(=O)N[C@@H](CC(=O)O)C(=O)N[C@@H](CCC(=O)O)C(=O)N[C@@H](CCCNC(=N)N)C(=O)N[C@@H](C)C(=O)N[C@@H](C)C(=O)N[C@@H](CCC(N)=O)C(=O)N[C@@H](CC(=O)O)C(=O)N[C@@H](Cc1ccccc1)C(=O)N[C@H](C(=O)N[C@@H](CCC(N)=O)C(=O)N[C@@H](Cc1c[nH]c2ccccc12)C(=O)N[C@@H](CC(C)C)C(=O)N[C@@H](CC(C)C)C(=O)N[C@@H](CCC(=O)O)C(=O)NCC(=O)NCC(=O)N1CCC[C@H]1C(=O)N[C@@H](CO)C(=O)N[C@@H](CO)C(=O)NCC(=O)N[C@@H](C)C(=O)N1CCC[C@H]1C(=O)N1CCC[C@H]1C(=O)N1CCC[C@H]1C(=O)N[C@@H](CO)C(N)=O)C(C)C)C(=O)O; test system = cynomolgus monkey; setting = subcutaneous, 0.0161 mg/kg; quantity = bioavailability; result = 114%
Structure (SMILES) = CC(C)C[C@@H](NC(=O)[C@@H](CCCNC(=N)N)NC(=O)[C@@H](Cc1c[nH]cn1)NC(=O)[C@@H](Cc1c[nH]c2ccccc12)NC(=O)[C@@H](Cc1c[nH]cn1)NC(=O)[C@@H](Cc1ccccc1)NC(=O)[C@H](NC(=O)[C@@H](Cc1ccc(O)cc1)NC(=O)CNC(=O)CNC(=O)CCOCCOCCOCCNC(=O)CN1CCN(CC(=O)O)CCN(CC(=O)O)CC1)[C@H](C)O)C(=O)N[C@H](CC(N)=O)C(=O)N1CCC[C@@H]1C(=O)O [gallium-68 labelled]; test system = male C57BL/6 mice; setting = intravenous, 1.85 MBq, 60 min; scale = baseline: tumour over brain; quantity = tumour-to-tissue ratio; result = 11.8 ± 2.37

Excerpt of the above:
Structure (SMILES) = CC(C)=CCC/C(C)=C/CCn1cc(CC(P(=O)(O)O)P(=O)(O)O)nn1; test system = mouse CD-1, bile; setting = intravenous, 0.3 mg/kg, 2 h; quantity = concentration; result = 554 ± 267 ng/mL
